Published values of several laboratories.
A part holds a random share of what one study measured.
Chain of UniProt O14578 (whole entry, looked up): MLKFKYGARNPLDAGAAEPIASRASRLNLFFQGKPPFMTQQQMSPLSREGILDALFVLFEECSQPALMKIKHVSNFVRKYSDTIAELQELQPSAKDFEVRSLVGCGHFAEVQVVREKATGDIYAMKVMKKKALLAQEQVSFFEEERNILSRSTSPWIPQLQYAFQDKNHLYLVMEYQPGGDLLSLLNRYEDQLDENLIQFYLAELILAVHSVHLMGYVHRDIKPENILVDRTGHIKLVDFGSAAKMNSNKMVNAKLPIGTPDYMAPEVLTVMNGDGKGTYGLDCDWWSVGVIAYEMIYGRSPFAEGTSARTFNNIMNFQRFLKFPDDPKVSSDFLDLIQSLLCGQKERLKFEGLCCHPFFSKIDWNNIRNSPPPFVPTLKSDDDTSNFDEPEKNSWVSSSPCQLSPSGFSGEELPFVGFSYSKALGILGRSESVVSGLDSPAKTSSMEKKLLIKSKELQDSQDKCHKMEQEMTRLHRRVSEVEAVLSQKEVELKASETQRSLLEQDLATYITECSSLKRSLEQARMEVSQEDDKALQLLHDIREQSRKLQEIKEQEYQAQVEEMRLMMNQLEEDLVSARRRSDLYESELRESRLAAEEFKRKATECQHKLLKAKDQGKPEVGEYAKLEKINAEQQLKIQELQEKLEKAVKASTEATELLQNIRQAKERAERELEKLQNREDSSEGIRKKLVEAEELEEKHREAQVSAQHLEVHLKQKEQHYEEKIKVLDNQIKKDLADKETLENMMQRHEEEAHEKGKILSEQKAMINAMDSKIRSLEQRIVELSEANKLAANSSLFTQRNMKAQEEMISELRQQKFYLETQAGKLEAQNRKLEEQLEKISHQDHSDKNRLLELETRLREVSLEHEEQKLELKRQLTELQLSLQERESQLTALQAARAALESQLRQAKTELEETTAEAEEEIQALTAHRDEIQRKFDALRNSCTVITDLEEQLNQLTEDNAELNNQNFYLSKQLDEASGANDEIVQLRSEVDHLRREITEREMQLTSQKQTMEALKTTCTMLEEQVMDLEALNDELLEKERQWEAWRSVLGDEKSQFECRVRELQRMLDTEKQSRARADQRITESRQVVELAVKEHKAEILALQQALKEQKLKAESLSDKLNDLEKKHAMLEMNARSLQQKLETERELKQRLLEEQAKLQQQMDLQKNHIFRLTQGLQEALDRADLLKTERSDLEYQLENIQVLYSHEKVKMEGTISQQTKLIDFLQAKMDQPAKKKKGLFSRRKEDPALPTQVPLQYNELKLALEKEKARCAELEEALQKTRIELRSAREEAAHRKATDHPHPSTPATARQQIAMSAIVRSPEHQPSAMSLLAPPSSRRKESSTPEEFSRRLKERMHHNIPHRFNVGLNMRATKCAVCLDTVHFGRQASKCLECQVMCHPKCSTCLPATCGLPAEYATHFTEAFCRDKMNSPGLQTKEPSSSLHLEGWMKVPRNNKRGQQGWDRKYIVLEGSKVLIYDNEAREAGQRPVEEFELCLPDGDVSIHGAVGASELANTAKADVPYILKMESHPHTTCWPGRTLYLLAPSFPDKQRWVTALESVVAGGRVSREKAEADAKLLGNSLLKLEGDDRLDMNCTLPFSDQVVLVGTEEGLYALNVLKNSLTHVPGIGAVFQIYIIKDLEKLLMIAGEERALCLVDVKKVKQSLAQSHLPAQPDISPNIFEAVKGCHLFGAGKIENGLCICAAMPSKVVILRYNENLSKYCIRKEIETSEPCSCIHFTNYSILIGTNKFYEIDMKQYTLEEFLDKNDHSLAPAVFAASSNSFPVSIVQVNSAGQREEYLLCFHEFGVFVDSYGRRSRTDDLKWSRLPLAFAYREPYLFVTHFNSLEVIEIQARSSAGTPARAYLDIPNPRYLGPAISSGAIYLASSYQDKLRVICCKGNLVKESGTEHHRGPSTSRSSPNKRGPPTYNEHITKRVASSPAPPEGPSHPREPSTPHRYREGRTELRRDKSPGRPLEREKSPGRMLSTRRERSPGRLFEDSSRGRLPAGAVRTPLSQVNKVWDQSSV
Chain of UniProt Q05655 (whole entry, looked up): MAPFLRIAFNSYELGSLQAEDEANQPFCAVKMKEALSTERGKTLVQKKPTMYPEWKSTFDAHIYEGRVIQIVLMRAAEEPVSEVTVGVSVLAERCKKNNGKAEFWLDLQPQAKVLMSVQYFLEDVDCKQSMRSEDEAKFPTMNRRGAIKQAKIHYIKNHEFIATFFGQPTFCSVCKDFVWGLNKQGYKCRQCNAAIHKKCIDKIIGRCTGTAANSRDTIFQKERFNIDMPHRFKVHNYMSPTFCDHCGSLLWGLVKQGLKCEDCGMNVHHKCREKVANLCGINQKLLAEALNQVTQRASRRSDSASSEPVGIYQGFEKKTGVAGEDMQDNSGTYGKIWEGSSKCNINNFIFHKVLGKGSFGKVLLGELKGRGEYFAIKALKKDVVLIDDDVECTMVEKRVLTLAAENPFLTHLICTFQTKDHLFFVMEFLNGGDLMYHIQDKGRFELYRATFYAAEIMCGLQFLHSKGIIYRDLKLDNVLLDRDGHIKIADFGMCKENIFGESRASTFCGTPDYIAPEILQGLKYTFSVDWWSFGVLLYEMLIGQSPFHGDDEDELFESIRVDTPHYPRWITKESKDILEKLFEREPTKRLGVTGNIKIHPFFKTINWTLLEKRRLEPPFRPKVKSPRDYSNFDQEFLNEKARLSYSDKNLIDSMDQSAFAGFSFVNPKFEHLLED

Series 1
Target: TAR DNA-binding protein 43, full length, His tag (TARDBP, Homo sapiens, UniProt Q13148, residues 1-414)
Method: RNA Bind-n-Seq
Molecule type: RNA
Sample: in vitro
Tested at: 20 nM
Notes: 6-mer, flanks averaged, single round
Together with: 150 mM LiCl
Baseline: input library
Direction: higher = stronger binding
Sequence	6-mer enrichment (R)
CCGAGA	0.991
GGAUAA	0.927
GAUGUU	1.11
UGGUCC	0.99
UCAGGA	0.891
ACUUUC	0.891
GGUAAG	1.1
GGUAGG	1.22

Series 2
Target: RING finger protein unkempt homolog, zinc fingers 1-6, GST-SBP tag (UNK, Homo sapiens, UniProt Q9C0B0, residues 30-357)
Chain of UniProt Q9C0B0 (30-357, looked up): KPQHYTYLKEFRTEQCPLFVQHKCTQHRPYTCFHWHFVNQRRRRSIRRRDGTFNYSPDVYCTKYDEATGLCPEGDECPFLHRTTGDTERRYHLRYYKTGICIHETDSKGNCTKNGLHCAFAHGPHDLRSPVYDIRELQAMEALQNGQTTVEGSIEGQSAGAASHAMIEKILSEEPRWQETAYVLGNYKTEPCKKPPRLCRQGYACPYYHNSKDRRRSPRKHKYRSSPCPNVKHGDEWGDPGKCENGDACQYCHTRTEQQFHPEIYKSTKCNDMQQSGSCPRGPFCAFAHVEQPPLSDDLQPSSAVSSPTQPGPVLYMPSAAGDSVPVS
Method: RNA Bind-n-Seq
Molecule type: RNA
Sample: in vitro
Tested at: not given
Notes: RNA with constant flanks, human and mouse sites, ends assumed
Baseline: input RNA pool
Direction: higher = stronger binding
Sequence	bound/input enrichment [ratio]
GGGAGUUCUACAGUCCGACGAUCAUUGUGGAAGAAGAUGAUGAAAUAAAUCGAGAUUGGUUGGAUUGGACCUAUUCAGCAGCUACAUUUUCUGUUUUUCUCAGUAUCCUCUACUUCUACUCCUCCCUGAGCAGAUUCCUCAUGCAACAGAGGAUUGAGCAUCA	0.114
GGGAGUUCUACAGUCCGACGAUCGGAGUCAAAGGGCUAACAGAACAAGAAGUAGAAACAAUAUUGGAUAAGGCAAUGGUCCUUUUUAGGUUUAUGCAAGAAAAAGAUGUAUUUGAACGUUAUUAUAAACAACACCUGGCAAGACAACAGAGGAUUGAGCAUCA	11.5
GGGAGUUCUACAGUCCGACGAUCUUAGCUCUCUUAACGCUGCCUGAAAGAGAGCUGGAUGACACUGUAUCUUUGGAGCAUCAGAAGUUUCUAAAGCAUAAAUUCUUUGUGCAAGAAAUUAUAUUUGAUCGCUGCUUAGACAAGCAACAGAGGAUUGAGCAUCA	0.714
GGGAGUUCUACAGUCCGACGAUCGAAUGCGGGUGAUCGGCAUGGCUCGCCUGGUGCUCGGUCUGGUGAGCUGCACCUUCUUUCUAGCAGUCAGCGGUCUGUAUUCUUCUAGUGAUGAUGUCAUCGAGUUGACGCCAUCAAAUUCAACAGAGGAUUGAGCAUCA	0.267
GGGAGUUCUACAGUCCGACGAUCCCGCUUUUUGCCGCGAGCCGACCGGUCCCGUCAUGCCGACCCGCAGUCCCAGCGUCGUGAUUAGCGAUGAUGAACCAGGUUAUGACCUAGAUUUGUUUUGUAUACCUAAUCAUUAUGCCGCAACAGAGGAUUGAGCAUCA	0.137
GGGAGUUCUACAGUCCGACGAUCGGAUCCAGUCUUGGUGGAUGGCUCAUGCUGCAUGCUGCAAUUGCACGGCCGGAAAAAGUCAUAGCUCUUAUUGGUAUAGCUACUGCUGCAGAUGGAUUGGUGACACAAUAUCAUGCACUUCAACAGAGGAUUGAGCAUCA	0.21
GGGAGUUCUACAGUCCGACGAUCUCUAAUUCACUAUUUUCAUGUUACAUUUCUGAAAUAAUUGAACUUUAGGGGCAAGAUACUACUUACUGAAGCACAGGUAAUUACUGAGAACCCACAGCCCAGCAAAUUCUAAGAGACAGUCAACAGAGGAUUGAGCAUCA	0.41
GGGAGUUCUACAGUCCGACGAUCUUUUUUUUAAAAUAGAAAAUAAAUCUGACAACAAAUACUUUAAAAAUUGUAAAUAGUUUUUAGUUUUACGACUUAAAGUGUUUUGAUGGGGAAAGUUGAUUGAAACUAUAACUGGUUUUACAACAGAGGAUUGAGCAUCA	6.52

Other studies, line by line
Structure (SMILES)	tested on	test	system	conditions	measurement	value
CCCOc1ccc([C@H]2[C@H](C(=O)O)[C@@H](c3ccc4c(c3)OCO4)CN2CC(=O)Nc2c(CC)cccc2CC)cc1	PRKCD (Homo sapiens, UniProt Q05655)	cell-free assay, competition with immobilised ligand		1 µM	remaining binding	100%
CCOC(=O)[C@@H]1CSCC(=O)N[C@H](CC)C(=O)N(C)[C@@H](C)C(=O)N[C@H](CC(C)C)C(=O)N2CCC[C@H]2C(=O)N(CC)CC(=O)N[C@H](CC(C)C)C(=O)N(C)[C@@H](C)C(=O)N[C@@H](CC(C)C)C(=O)N1C			hydrocarbon/water		logD	1.22
COc1ccc2cc(OCC3(C(=O)O)CN(C(=O)c4ccc(F)cc4)C3)ccc2c1	CIT (Homo sapiens, UniProt O14578)	cell-free assay, competition with immobilised ligand		1 µM	remaining binding	100%

For quick reference, copied from above (series 2):
Sequence	bound/input enrichment [ratio]
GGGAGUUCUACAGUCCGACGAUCGGAUCCAGUCUUGGUGGAUGGCUCAUGCUGCAUGCUGCAAUUGCACGGCCGGAAAAAGUCAUAGCUCUUAUUGGUAUAGCUACUGCUGCAGAUGGAUUGGUGACACAAUAUCAUGCACUUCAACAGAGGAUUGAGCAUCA	0.21
